Experimental data collected from several papers.
Lines come from different studies, so protocols differ. ± marks the error that the study gave.
CYP2E1: Cytochrome P450 2E1 (CYP2E1, Homo sapiens, UniProt P05181)
Chain of UniProt P05181 (whole entry, looked up): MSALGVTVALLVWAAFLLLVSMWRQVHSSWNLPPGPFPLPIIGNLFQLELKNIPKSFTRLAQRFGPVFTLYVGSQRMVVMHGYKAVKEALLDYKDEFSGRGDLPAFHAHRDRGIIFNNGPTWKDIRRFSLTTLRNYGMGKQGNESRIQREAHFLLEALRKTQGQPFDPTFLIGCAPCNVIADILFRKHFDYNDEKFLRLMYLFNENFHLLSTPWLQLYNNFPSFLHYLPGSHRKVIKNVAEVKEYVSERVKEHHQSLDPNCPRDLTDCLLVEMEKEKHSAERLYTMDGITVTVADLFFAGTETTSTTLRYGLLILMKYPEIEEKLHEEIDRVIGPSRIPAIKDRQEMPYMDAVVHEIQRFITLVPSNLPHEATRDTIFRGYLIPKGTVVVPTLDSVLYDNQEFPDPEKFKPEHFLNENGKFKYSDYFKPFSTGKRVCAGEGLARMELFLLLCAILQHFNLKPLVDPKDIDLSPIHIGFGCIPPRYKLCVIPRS
CYP1A2: Cytochrome P450 1A2 (CYP1A2, Homo sapiens, UniProt P05177)
Chain of UniProt P05177 (whole entry, looked up): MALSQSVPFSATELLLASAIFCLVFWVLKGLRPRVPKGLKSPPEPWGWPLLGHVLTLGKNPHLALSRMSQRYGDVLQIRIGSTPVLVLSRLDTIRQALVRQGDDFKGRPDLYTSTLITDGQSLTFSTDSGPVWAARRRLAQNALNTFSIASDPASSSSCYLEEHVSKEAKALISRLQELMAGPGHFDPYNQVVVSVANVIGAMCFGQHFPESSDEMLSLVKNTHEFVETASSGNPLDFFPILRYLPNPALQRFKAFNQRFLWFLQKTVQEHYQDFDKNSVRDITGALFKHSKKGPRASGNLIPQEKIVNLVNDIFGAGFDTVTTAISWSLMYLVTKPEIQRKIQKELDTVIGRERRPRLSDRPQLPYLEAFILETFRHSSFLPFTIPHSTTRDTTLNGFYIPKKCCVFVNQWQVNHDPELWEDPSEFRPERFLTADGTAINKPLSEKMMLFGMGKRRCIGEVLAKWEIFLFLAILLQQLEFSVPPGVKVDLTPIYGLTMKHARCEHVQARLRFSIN
PROK: Proteinase K (PROK, Engyodontium album, UniProt P06873)
Chain of UniProt P06873 (whole entry, looked up): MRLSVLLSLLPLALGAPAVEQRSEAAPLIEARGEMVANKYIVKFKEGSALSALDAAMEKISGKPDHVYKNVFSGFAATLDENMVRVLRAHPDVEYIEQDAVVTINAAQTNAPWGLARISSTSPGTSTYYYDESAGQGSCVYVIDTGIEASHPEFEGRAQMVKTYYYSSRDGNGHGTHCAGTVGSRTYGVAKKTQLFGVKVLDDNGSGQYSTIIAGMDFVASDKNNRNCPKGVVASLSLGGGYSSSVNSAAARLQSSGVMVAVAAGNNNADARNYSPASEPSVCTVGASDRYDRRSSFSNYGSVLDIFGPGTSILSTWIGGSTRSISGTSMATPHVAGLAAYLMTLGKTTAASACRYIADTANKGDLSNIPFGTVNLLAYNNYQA
Chain of UniProt P61073 (whole entry, looked up): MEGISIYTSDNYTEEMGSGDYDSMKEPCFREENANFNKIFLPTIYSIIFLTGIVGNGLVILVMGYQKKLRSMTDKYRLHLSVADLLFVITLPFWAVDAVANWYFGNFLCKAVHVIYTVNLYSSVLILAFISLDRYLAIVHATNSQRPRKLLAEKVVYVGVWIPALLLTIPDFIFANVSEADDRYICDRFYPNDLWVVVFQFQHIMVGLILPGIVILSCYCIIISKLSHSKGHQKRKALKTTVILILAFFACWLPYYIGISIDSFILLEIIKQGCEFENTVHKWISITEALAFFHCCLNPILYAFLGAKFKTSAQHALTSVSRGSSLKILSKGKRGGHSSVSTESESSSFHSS
Chain of UniProt P28065 (whole entry, looked up): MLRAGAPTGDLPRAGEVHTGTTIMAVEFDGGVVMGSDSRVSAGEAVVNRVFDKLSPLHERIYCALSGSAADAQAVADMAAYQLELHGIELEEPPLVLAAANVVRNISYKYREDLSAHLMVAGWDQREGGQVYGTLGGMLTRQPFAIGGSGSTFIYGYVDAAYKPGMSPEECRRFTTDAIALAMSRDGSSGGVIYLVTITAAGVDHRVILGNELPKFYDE
Chain of UniProt P40306 (whole entry, looked up): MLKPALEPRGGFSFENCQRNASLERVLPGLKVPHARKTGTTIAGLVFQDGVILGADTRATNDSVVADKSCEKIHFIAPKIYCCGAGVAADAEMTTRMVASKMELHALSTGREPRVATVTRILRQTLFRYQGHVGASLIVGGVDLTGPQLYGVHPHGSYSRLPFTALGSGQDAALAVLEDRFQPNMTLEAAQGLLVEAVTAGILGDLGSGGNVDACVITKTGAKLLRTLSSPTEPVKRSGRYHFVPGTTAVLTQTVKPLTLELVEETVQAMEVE
Chain of UniProt P48546 (whole entry, looked up): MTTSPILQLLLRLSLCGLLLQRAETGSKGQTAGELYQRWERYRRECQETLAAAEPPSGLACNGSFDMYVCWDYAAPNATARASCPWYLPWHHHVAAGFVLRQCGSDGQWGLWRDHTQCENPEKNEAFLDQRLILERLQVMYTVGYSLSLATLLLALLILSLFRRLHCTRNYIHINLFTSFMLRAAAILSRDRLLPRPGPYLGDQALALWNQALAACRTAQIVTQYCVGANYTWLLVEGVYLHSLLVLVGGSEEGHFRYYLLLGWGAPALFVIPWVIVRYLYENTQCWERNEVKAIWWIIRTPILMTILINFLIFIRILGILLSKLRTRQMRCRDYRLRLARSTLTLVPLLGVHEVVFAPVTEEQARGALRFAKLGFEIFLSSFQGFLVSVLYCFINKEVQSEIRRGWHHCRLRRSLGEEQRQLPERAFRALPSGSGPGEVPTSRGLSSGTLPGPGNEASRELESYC
Chain of UniProt Q14524 (whole entry, looked up): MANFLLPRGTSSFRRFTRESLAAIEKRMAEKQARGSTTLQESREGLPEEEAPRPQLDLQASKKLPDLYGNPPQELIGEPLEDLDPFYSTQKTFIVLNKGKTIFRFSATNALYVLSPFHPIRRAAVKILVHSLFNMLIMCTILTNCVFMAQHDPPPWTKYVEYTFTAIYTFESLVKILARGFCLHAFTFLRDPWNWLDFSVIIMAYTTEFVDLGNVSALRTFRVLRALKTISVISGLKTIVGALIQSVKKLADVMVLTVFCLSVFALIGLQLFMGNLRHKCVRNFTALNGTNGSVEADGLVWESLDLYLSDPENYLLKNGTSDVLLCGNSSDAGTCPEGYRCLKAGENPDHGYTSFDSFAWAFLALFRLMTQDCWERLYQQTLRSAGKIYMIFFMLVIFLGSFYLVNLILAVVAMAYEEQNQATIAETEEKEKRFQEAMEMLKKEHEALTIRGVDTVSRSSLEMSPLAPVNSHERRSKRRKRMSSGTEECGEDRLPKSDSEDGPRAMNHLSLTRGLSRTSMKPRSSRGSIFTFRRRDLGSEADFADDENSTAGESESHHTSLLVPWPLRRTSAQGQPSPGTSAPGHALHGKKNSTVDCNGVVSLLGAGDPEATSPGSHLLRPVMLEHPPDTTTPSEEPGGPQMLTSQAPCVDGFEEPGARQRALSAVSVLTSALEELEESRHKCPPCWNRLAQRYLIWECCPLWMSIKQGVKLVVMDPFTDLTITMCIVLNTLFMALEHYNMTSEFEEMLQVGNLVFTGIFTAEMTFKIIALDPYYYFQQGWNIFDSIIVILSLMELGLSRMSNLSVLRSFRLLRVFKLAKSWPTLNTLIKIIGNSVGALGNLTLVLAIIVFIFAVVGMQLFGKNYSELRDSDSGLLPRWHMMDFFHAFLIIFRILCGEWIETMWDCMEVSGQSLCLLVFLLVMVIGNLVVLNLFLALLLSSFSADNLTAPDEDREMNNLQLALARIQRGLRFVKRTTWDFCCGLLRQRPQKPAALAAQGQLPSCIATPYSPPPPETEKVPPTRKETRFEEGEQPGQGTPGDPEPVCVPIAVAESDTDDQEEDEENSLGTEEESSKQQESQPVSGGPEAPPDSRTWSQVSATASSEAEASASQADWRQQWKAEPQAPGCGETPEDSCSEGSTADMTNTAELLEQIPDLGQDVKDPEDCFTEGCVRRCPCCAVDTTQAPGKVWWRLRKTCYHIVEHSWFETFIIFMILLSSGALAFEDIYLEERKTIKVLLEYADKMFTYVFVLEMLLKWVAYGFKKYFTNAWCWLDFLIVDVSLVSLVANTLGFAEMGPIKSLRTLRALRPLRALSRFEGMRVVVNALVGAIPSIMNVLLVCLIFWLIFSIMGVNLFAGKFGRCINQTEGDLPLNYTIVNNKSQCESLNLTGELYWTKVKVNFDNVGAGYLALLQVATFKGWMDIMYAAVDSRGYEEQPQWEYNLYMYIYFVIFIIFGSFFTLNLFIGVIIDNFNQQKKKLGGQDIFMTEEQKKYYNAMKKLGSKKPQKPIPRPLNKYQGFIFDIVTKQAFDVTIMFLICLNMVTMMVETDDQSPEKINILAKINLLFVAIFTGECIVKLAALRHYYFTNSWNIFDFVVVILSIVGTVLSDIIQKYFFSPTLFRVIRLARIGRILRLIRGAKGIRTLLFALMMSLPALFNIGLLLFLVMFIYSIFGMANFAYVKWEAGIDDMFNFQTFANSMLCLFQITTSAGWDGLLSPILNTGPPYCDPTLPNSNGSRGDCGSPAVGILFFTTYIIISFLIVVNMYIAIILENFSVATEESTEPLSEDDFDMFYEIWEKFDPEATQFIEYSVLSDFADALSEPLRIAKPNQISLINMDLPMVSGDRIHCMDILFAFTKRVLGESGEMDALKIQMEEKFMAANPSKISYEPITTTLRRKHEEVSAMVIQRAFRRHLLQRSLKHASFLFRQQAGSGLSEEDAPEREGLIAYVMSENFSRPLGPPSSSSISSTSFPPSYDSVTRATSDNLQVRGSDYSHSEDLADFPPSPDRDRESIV
Chain of UniProt P28062 (whole entry, looked up): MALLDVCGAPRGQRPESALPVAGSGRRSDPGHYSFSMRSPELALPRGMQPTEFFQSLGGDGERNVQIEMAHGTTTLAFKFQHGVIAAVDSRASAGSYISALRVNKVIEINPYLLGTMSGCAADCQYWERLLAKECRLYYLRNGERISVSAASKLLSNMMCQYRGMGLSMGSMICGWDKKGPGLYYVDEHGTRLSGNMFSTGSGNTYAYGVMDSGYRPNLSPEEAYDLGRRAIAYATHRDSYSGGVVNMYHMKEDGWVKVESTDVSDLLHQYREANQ

| Compound | target | test | system | conditions | how to read | quantity | value |
| --- | --- | --- | --- | --- | --- | --- | --- |
| Oc1c(Br)cccc1Br | CYP2E1 | p-nitrophenol hydroxylation, inhibitor | – | 10 min, with: p-nitrophenol 100 µM | – | IC50 | 29 µM |
| CC(C)C[C@@H]1NC(=O)C[C@@H](C(=O)N[C@@H](Cc2c[nH]c3ccccc23)C(=O)N[C@@H](CC(N)=O)C(=O)N[C@@H](C)C(=O)N2CCC[C@H]2C(=O)NCC(=O)N[C@@H](Cc2c[nH]c3ccccc23)C(=O)N[C@@H](Cc2ccccc2)C(=O)O)NC(=O)[C@H](C)NC(=O)[C@H](CCC(N)=O)NC(=O)[C@H](C(C)C)NC(=O)[C@H](C)NC(=O)[C@H](C(C)C)NC(=O)[C@H](C(C)C)NC1=O | carboxypeptidase Y | – | – | 12 h, pH 6.0, 28 °C | – | proteolytic stability | stable |
| CNC(=O)Oc1cc(C)c(S(C)(=O)=O)c(C)c1 | CYP1A2 | inhibitor | human liver microsomes | 2 µM, pH 7.4, with: phenacetin | – | inhibition | 2.14% |
| CC[C@H](C)[C@H](NC(=O)[C@H](CCCNC(=N)N)NC(=O)[C@H](CCC(=O)O)NC(=O)[C@H](Cc1ccccc1)NC(=O)[C@H](CC(N)=O)NC(=O)CNC(=O)[C@H](C)NC(=O)[C@H](CCC(=O)O)NC(=O)[C@H](CCC(N)=O)NC(=O)[C@H](C)NC(=O)[C@H](CC(C)C)NC(=O)[C@@H](NC(=O)[C@H](C)NC(=O)[C@H](C)NC(=O)[C@H](CC(=O)O)NC(=O)[C@@H](NC(=O)[C@H](CCCCN)NC(=O)[C@H](CCSC)NC(=O)[C@H](CCC(=O)O)NC(=O)[C@H](C)N)[C@@H](C)O)[C@@H](C)O)C(=O)O | PSMB8/Proteasome subunit beta type-9/Proteasome subunit beta type-10 (Homo sapiens, UniProt P28062+P28065+P40306) | proteasome digestion, substrate, LC-MS/MS | – | concentration not given, 20 h, pH 7.6, 37 °C | – | parent peptide reduction | 15 to 25% |
| CCN(Cc1ccccc1)C(=O)CCc1nc(CN2CCN(C(=O)Cc3ccc(OC)c(OC)c3)CC2)no1 | SCN5A (Homo sapiens, UniProt Q14524) | ion current, whole-cell patch clamp | HEK stably expressing channel | 10 µM | – | inhibition | 15 ± 6.9% |
| C=CCOCC=C | CYP2E1 | enzyme activity | baculosomes | 1 h, pH 7.4, with: p-nitrophenol | – | maximal inhibition | 100% |
| CC[C@H](C)[C@H](NC(=O)[C@H](Cc1c[nH]cn1)NC(=O)[C@H](CC(N)=O)NC(=O)[C@H](Cc1ccccc1)NC(=O)[C@H](Cc1ccc(O)cc1)NC(=O)[C@H](Cc1ccc(O)cc1)NC(=O)[C@@H](NC(=O)[C@H](CCCNC(=N)N)NC(=O)CNC(=O)[C@H](CO)NC(=O)[C@H](CO)NC(=O)[C@H](CCCNC(=N)N)NC(=O)[C@H](Cc1ccc(OCc2cn(CCOCCOCCOCCOC)nn2)cc1)NC(=O)[C@H](CCSC)NC(=O)[C@H](CCCNC(=N)N)NC(=O)[C@H](CCCCN)NC(=O)[C@H](CCC(=O)O)NC(=O)[C@H](Cc1c[nH]c2ccccc12)NC(=O)CNC(=O)[C@@H]1CCCN1C(=O)[C@@H]1CCCN1C(=O)[C@H](CC(C)C)NC(=O)[C@@H](N)CCCCN)C(C)C)C(=O)N[C@H](C(=O)N[C@@H](CC(N)=O)C(=O)N[C@@H](C)C(=O)N[C@@H](CO)C(=O)N[C@@H](CCC(N)=O)C(=O)N[C@@H](Cc1ccccc1)C(=O)N[C@@H](CCC(=O)O)C(=O)N[C@@H](CCCNC(=N)N)C(=O)N1CCC[C@H]1C(=O)N[C@@H](CO)C(=O)NCC(=O)O)[C@@H](C)O | PROK | proteolysis, substrate, HPLC | – | room temperature | baseline: PEGylated over non-PEGylated variant, negative = more stable | ln rate constant ratio | 1.3 ± 0.6 |
| Cc1cc(Br)c(O)c(Br)c1 | CYP2E1 | p-nitrophenol hydroxylation, noncompetitive inhibitor, calculated from IC50 | baculosomes | – | – | Ki | 14 µM |
| CC(C)(O)c1ccccc1CC[C@H](c1cccc(/C=C/c2ccc3ccc(Cl)cc3n2)c1)S(=O)(=O)CC1(CC(=O)O)CC1 | CYP1A2 | inhibitor | human liver microsomes | 10 µM, pH 7.4, with: phenacetin | – | inhibition | < 0% |
| CC[C@H](C)[C@H](NC(=O)[C@H](Cc1c[nH]cn1)NC(=O)[C@H](CC(N)=O)NC(=O)[C@H](Cc1ccccc1)NC(=O)[C@H](Cc1ccc(O)cc1)NC(=O)[C@H](Cc1ccc(O)cc1)NC(=O)[C@@H](NC(=O)[C@H](CCCNC(=N)N)NC(=O)CNC(=O)[C@H](CO)NC(=O)[C@H](CO)NC(=O)[C@H](CCCNC(=N)N)NC(=O)[C@H](CO)NC(=O)[C@H](CCSC)NC(=O)[C@H](CCCNC(=N)N)NC(=O)[C@H](CCCCN)NC(=O)[C@H](CCC(=O)O)NC(=O)[C@H](Cc1c[nH]c2ccccc12)NC(=O)CNC(=O)[C@@H]1CCCN1C(=O)[C@@H]1CCCN1C(=O)[C@H](CC(C)C)NC(=O)[C@@H](N)CCCCN)C(C)C)C(=O)N[C@H](C(=O)N[C@@H](CC(N)=O)C(=O)N[C@@H](C)C(=O)N[C@@H](Cc1ccc(OCc2cn(CCOCCOCCOCCOC)nn2)cc1)C(=O)N[C@@H](CCC(N)=O)C(=O)N[C@@H](Cc1ccccc1)C(=O)N[C@@H](CCC(=O)O)C(=O)N[C@@H](CCCNC(=N)N)C(=O)N1CCC[C@H]1C(=O)N[C@@H](CO)C(=O)NCC(=O)O)[C@@H](C)O | PROK | proteolysis, substrate, HPLC | – | room temperature | baseline: PEGylated over non-PEGylated variant, negative = more stable | ln rate constant ratio | -0.1 ± 0.5 |
| CCCS(=O)(=O)c1ccc2[nH]c(NC(=O)OC)nc2c1 | CYP1A2 | inhibitor | human liver microsomes | 2 µM, pH 7.4, with: phenacetin | – | inhibition | 2.25% |
| CC[C@H](C)[C@H](NC(=O)[C@H](Cc1c[nH]cn1)NC(=O)[C@H](CC(N)=O)NC(=O)[C@H](Cc1ccccc1)NC(=O)[C@H](Cc1ccc(O)cc1)NC(=O)[C@H](Cc1ccc(O)cc1)NC(=O)[C@@H](NC(=O)[C@H](CCCNC(=N)N)NC(=O)CNC(=O)[C@H](CO)NC(=O)[C@H](CO)NC(=O)[C@H](CCCNC(=N)N)NC(=O)[C@H](CO)NC(=O)[C@H](CCSC)NC(=O)[C@H](CCCNC(=N)N)NC(=O)[C@H](CCCCN)NC(=O)[C@H](CCC(=O)O)NC(=O)[C@H](Cc1c[nH]c2ccccc12)NC(=O)CNC(=O)[C@@H]1CCCN1C(=O)[C@@H]1CCCN1C(=O)[C@H](CC(C)C)NC(=O)[C@@H](N)CCCCN)C(C)C)C(=O)N[C@@H](Cc1ccc(OCc2cn(CCOCCOCCOCCOC)nn2)cc1)C(=O)N[C@@H](CC(N)=O)C(=O)N[C@@H](C)C(=O)N[C@@H](CO)C(=O)N[C@@H](CCC(N)=O)C(=O)N[C@@H](Cc1ccccc1)C(=O)N[C@@H](CCC(=O)O)C(=O)N[C@@H](CCCNC(=N)N)C(=O)N1CCC[C@H]1C(=O)N[C@@H](CO)C(=O)NCC(=O)O | PROK | proteolysis, substrate, HPLC | – | room temperature | baseline: PEGylated over non-PEGylated variant, negative = more stable | ln rate constant ratio | -0.1 ± 0.4 |
| CN1C(=O)[C@@H](Cc2ccc(O)cc2)NC(=O)CNC(=O)[C@H](Cc2ccc3ccccc3c2)NC(=O)[C@H](CCCNC(=N)N)NC(=O)[C@H]1CCCNC(=O)c1ccc(CNC(=O)CN2CCN(CC(=O)O)CCN(CC(=O)O)CCN(CC(=O)O)CC2)cc1 [gallium-68 labelled] | CXCR4 (Homo sapiens, UniProt P61073) | PET imaging | human, muscle | – | – | SUVmean | 0.77 |
| CC[C@H](C)[C@H](NC(=O)[C@H](Cc1c[nH]cn1)NC(=O)[C@H](CC(N)=O)NC(=O)[C@H](Cc1ccccc1)NC(=O)[C@H](Cc1ccc(O)cc1)NC(=O)[C@H](Cc1ccc(O)cc1)NC(=O)[C@@H](NC(=O)[C@H](CCCNC(=N)N)NC(=O)CNC(=O)[C@H](CO)NC(=O)[C@H](CO)NC(=O)[C@H](CCCNC(=N)N)NC(=O)[C@H](CO)NC(=O)[C@H](CCSC)NC(=O)[C@H](CCCNC(=N)N)NC(=O)[C@H](CCCCN)NC(=O)[C@H](CCC(=O)O)NC(=O)[C@H](Cc1c[nH]c2ccccc12)NC(=O)CNC(=O)[C@@H]1CCCN1C(=O)[C@@H]1CCCN1C(=O)[C@H](CC(C)C)NC(=O)[C@@H](N)CCCCN)C(C)C)C(=O)N[C@H](C(=O)N[C@@H](CC(N)=O)C(=O)N[C@@H](C)C(=O)N[C@@H](CC(=O)N(CCOCCOCCOCCOC)CCOCCOCCOCCOC)C(=O)N[C@@H](CCC(N)=O)C(=O)N[C@@H](Cc1ccccc1)C(=O)N[C@@H](CCC(=O)O)C(=O)N[C@@H](CCCNC(=N)N)C(=O)N1CCC[C@H]1C(=O)N[C@@H](CO)C(=O)NCC(=O)O)[C@@H](C)O | PROK | proteolysis, substrate, HPLC | – | room temperature | baseline: PEGylated over non-PEGylated variant, negative = more stable | ln rate constant ratio | -1.5 ± 0.4 |
| [64Cu+2].c1ccc(CNCc2ccc(CN3CCCNCCNCCCNCC3)cc2)nc1 | CXCR4 | – | NOD/SCID mouse, U87 xenografts, small intestine | 90 min | – | tissue uptake | 3.32 ± 0.14 %ID/g |
| CC[C@H](C)[C@H](NC(=O)[C@H](CO)NC(=O)[C@H](Cc1ccc(O)cc1)NC(=O)[C@H](CC(=O)O)NC(=O)[C@H](CO)NC(=O)[C@@H](NC(=O)[C@H](Cc1ccccc1)NC(=O)[C@@H](NC(=O)CNC(=O)[C@H](CCC(=O)O)NC(=O)N(C)NC(=O)[C@@H](N)Cc1ccc(O)cc1)[C@@H](C)O)[C@@H](C)CC)C(=O)N[C@@H](C)C(=O)N[C@@H](CCSC)C(=O)N[C@@H](CC(=O)O)C(=O)N[C@@H](CCCCN)C(=O)N[C@H](C(=O)N[C@@H](Cc1c[nH]cn1)C(=O)N[C@@H](CCC(N)=O)C(=O)N[C@@H](CCC(N)=O)C(=O)N[C@@H](CC(=O)O)C(=O)N[C@@H](Cc1ccccc1)C(=O)N[C@H](C(=O)N[C@@H](CC(N)=O)C(=O)N[C@@H](Cc1c[nH]c2ccccc12)C(=O)N[C@@H](CC(C)C)C(=O)N[C@@H](CC(C)C)C(=O)N[C@@H](C)C(=O)N[C@@H](CCC(N)=O)C(=O)N[C@@H](CCCCN)C(=O)NCC(=O)N[C@@H](CCCCN)C(=O)N[C@@H](CCCCN)C(=O)N[C@@H](CC(N)=O)C(=O)N[C@@H](CC(=O)O)C(=O)N[C@@H](Cc1c[nH]c2ccccc12)C(=O)N[C@@H](CCCCN)C(=O)N[C@@H](Cc1c[nH]cn1)C(=O)N[C@@H](CC(N)=O)C(=O)N[C@H](C(=O)N[C@H](C(=O)N[C@@H](CCC(N)=O)C(=O)O)[C@@H](C)O)[C@@H](C)CC)C(C)C)[C@@H](C)CC | GIPR (Homo sapiens, UniProt P48546) | luciferase reporter gene | – | overnight, 37 °C, with: DPP4 | baseline: EC50 with over without DPP4 | EC50 fold shift | 1 |
